{"data": "Assay results collected from several papers", "note": "Compare with care: the assays were run in different laboratories. Several values in a cell are separate wells, animals, samples, runs or records. ± gives the spread as reported."}
{"SMILES": "c1coc(-c2n[nH]cc2-c2ccnc3ccccc23)c1", "target": "SHA3 (Candida albicans)", "assay": "kinase binding, MIB/MS competition", "test system": "Candida albicans lysate", "setting": "10 µM", "how to read": "relative to: DMSO", "measurement": "log2 fold change", "value": -0.18}
{"SMILES": "Oc1cccc(Nc2nc(-c3ccc(F)cc3F)cs2)c1", "target": "SKCa channel", "setting": "10 µM", "measurement": "inhibition", "value": "4.2%"}
{"SMILES": "Cc1ncsc1-c1ccc([C@H](C)NC(=O)[C@@H]2C[C@@H](O)CN2C(=O)[C@@H](NC(=O)CCCCCCCCCCNC[C@@H](C(=O)N2CCN(c3ncnc4c3[C@H](C)C[C@H]4O)CC2)c2ccc(Cl)cc2)C(C)(C)C)cc1", "target": "Akt", "assay": "inhibitor", "test system": "mouse BT-474 xenograft", "setting": "intraperitoneal, 40 mg/kg", "measurement": "time to peak response", "value": "24 h"}
{"SMILES": "NCCCOc1cc(NC(=O)c2cc(Cl)cc(C(=O)Nc3cc(OCCCN)c4ccccc4n3)n2)nc2ccccc12", "target": "c-myc G-quadruplex DNA", "assay": "FRET melting", "setting": "1 µM, pH 7.4, added: 60 mM potassium", "measurement": "ΔTm", "value": "17.1 ± 0.5 K"}
{"SMILES": "Oc1ccccc1-c1n[nH]cc1-c1ccnc2ccccc12", "target": "KIN2 (Candida albicans)", "assay": "kinase binding, MIB/MS competition", "test system": "Candida albicans lysate", "setting": "10 µM", "how to read": "relative to: DMSO", "measurement": "log2 fold change", "value": 0.04}
{"SMILES": "CC[S+]([O-])c1nc(-c2ccccc2)cc(C(F)(F)F)n1 (stereo not shown)", "target": "importin beta-1", "assay": "SREBP1 nuclear import, high content imaging", "test system": "HeLa Kyoto", "setting": "15.82 µM, 3 h, added: glucose and MG132", "measurement": "cells with nuclear SREBP1", "value": "56.4% and 80.3% and 76.1%"}
{"SMILES": "O=C1Nc2cc(Br)ccc2/C1=C1/Nc2ccccc2/C1=N\\O", "target": "GSK3", "assay": "inhibitor, immunoblot", "test system": "HEK293 stably expressing Hwa-HA", "setting": "1 µM, 24 h", "measurement": "Hwa phosphorylation", "value": "decreased"}
{"SMILES": "[Cl-].[Cl-].[Pt+2].[Ru+2].c1ccc(-c2nc3ccccc3nc2-c2ccccn2)nc1.c1cnc2c(c1)ccc1cccnc12.c1cnc2c(c1)ccc1cccnc12", "target": "pcDNA supercoiled plasmid", "assay": "agarose gel electrophoresis", "setting": "20 µM, photoinduced cleavage, added: 0.1 µM pcDNA", "measurement": "supercoiled DNA", "value": "88.3%"}
{"SMILES": "NCCOc1cc(NC(=O)c2cc(OCc3ccc(F)cc3)cc(C(=O)Nc3cc(OCCN)c4ccccc4n3)n2)nc2ccccc12", "target": "c-myc G-quadruplex DNA", "assay": "FRET melting", "setting": "1 µM, pH 7.4, added: 60 mM potassium", "measurement": "ΔTm", "value": "2.3 ± 0.3 K"}
{"SMILES": "CCS(=O)(=O)c1nc(C2CC2)cc(C(F)(F)F)n1", "target": "importin beta-1", "assay": "SREBP1 nuclear import, high content imaging", "test system": "HeLa Kyoto", "setting": "0.5 µM, 3 h, added: glucose and MG132", "measurement": "cells with nuclear SREBP1", "value": "87.9% and 87.4% and 95% and 84.1%"}
{"SMILES": "[Cl-].[Cl-].[Pt+2].[Ru+2].c1ccc(-c2nc3cc4ccccc4cc3nc2-c2ccccn2)nc1.c1cnc2c(c1)ccc1cccnc12.c1cnc2c(c1)ccc1cccnc12", "target": "pcDNA supercoiled plasmid", "assay": "agarose gel electrophoresis", "setting": "50 µM, photoinduced cleavage, added: 0.1 µM pcDNA", "measurement": "supercoiled DNA", "value": "86%"}
{"SMILES": "CC(Nc1nc(N2CCCC2)nc2ccccc12)c1ccccc1 (stereo not shown)", "target": "importin beta-1", "assay": "SREBP1 nuclear import, high content imaging", "test system": "HeLa Kyoto", "setting": "1.58 µM, 3 h, added: glucose and MG132", "measurement": "cells with nuclear SREBP1", "value": "92.1% and 91.2% and 89.6% and 87%"}
{"SMILES": "[Cl-].[Cl-].[Pt+2].[Ru+2].c1ccc(-c2nccnc2-c2ccccn2)nc1.c1cnc2c(c1)ccc1cccnc12.c1cnc2c(c1)ccc1cccnc12", "target": "pcDNA supercoiled plasmid", "assay": "agarose gel electrophoresis", "setting": "50 µM, photoinduced cleavage, added: 0.1 µM pcDNA", "measurement": "supercoiled DNA", "value": "79.4%"}
{"SMILES": "Nc1ccc2nccc(NCCc3ccccc3)c2c1", "target": "CDK8/CDK19", "assay": "NF-κB reporter gene", "test system": "293-NFκB-Luc", "setting": "3 h, added: TNF-α 10 ng/mL", "measurement": "IC50", "value": "> 5 µM"}
{"SMILES": "CN(C)CCOc1cc(NC(=O)c2cc(Cl)cc(C(=O)Nc3cc(OCCN(C)C)c4ccccc4n3)n2)nc2ccccc12", "target": "c-myc G-quadruplex DNA", "assay": "FRET melting", "setting": "1 µM, pH 7.4, added: 60 mM potassium", "measurement": "ΔTm", "value": "12.1 ± 0.5 K"}
{"SMILES": "C[C@H]1O[C@H](O[C@H]2[C@H](O)[C@@H](O)[C@@H](O[C@H]3[C@H](O)[C@@H](O)C(O)O[C@@H]3CO)O[C@@H]2CO)[C@H](O)[C@@H](O)[C@@H]1N[C@H]1C=C(CO)[C@@H](O)[C@H](O)[C@H]1O (stereo partly shown)", "target": "yeast alpha-glucosidase", "assay": "enzyme activity", "setting": "added: pNPG", "measurement": "IC50", "value": "51.4 µM"}
{"note": "Excerpt of the above:"}
{"SMILES": "NCCCOc1cc(NC(=O)c2cc(Cl)cc(C(=O)Nc3cc(OCCCN)c4ccccc4n3)n2)nc2ccccc12", "target": "c-myc G-quadruplex DNA", "assay": "FRET melting", "setting": "1 µM, pH 7.4, added: 60 mM potassium", "measurement": "ΔTm", "value": "17.1 ± 0.5 K"}
{"SMILES": "Oc1ccccc1-c1n[nH]cc1-c1ccnc2ccccc12", "target": "KIN2 (Candida albicans)", "assay": "kinase binding, MIB/MS competition", "test system": "Candida albicans lysate", "setting": "10 µM", "how to read": "relative to: DMSO", "measurement": "log2 fold change", "value": 0.04}
